Measurements from different studies.
Each line is one published result; not all experiments were run side by side.
CALCR: Calcitonin receptor (CALCR, Homo sapiens, UniProt P30988)

CC(C)(C(=O)N1CCC(Nc2nc3c(c(=O)[nH]2)CCCC3)CC1)c1ccc(Cl)cc1 — EC50 (MRGPRD (Homo sapiens, UniProt Q8TDS7); miniGq recruitment, agonist, BRET1; HEK293T): 0.0921 µM
O=Cc1ccc([N+](=O)[O-])c(OS(=O)(=O)C2CCOCC2)c1 — EC50 (YWHAG/RELA, phospho-Ser45 p65 peptide (Homo sapiens, UniProt P61981+Q04206); ternary complex formation, stabilizer, fluorescence anisotropy): > 1000 µM
CC(C)C[C@H](NC(=O)[C@H](CCCN)NC(=O)CNC(=O)[C@@H](NC(=O)[C@H](C)NC(=O)[C@@H]1CSCSC[C@H](NC(=O)CC[C@H](N)C(=O)O)C(=O)N[C@@H](CC(N)=O)C(=O)N[C@@H]([C@@H](C)O)C(=O)N[C@@H](C)C(=O)N[C@@H]([C@@H](C)O)C(=O)N1)[C@@H](C)O)C(=O)N[C@@H](C)C(=O)N[C@@H](CCC(=O)O)C(=O)N[C@@](C)(Cc1ccccc1)C(=O)N[C@@H](CC(C)C)C(=O)N[C@H](C(=O)N[C@@H](CCCNC(=N)N)C(=O)N[C@@H](CO)C(=O)N[C@@H](CO)C(=O)N[C@@H](CC(N)=O)C(=O)N(C)[C@@H](CC(N)=O)C(=O)N[C@@H](Cc1ccccc1)C(=O)NCC(=O)N1CCC[C@H]1C(=O)N[C@@H](CCCCNC(=O)CC[C@H](NC(=O)CC[C@H](NC(=O)CCCCCCCCCCCCCCCCCCC(=O)O)C(=O)O)C(=O)O)C(=O)N[C@@H](CC(C)C)C(=O)N1CCC[C@H]1C(=O)N1CCC[C@H]1C(=O)N[C@H](C(=O)N[C@@H](CCC(=O)O)C(=O)N[C@H](C(=O)NCC(=O)N[C@@H](CO)C(=O)N[C@@H](CC(N)=O)C(=O)N[C@H](C(=O)N[C@@H](Cc1ccc(O)cc1)C(N)=O)[C@@H](C)O)C(C)C)[C@@H](C)O)C(C)C — EC50 (Calcitonin receptor (Rattus norvegicus, UniProt P32214); cAMP, agonist, TR-FRET): 0.000243 µM
CC[C@H](C)[C@@H](C(=O)N[C@@H](CC(C)C)C(=O)N[C@@H](CO)C(=O)N[C@@H](CO)C(=O)N[C@H](C(=O)N[C@@H](CCC(=O)O)C(=O)N[C@H](C(=O)NCC(=O)N[C@@H](CO)C(=O)N[C@@H](CC(N)=O)C(=O)N[C@H](C(=O)N1C[C@H](O)C[C@H]1C(N)=O)[C@@H](C)O)C(C)C)[C@@H](C)O)N(C)C(=O)[C@H](C)NC(=O)CN(C)C(=O)[C@H](Cc1ccccc1)NC(=O)[C@H](CO)NC(=O)[C@H](CO)NC(=O)[C@H](CCCNC(=N)N)NC(=O)[C@H](CCC(N)=O)NC(=O)[C@H](CC(C)C)NC(=O)[C@H](Cc1ccccc1)NC(=O)[C@H](Cc1c[nH]cn1)NC(=O)[C@H](C)NC(=O)[C@H](CC(C)C)NC(=O)[C@H](CCCNC(=N)N)NC(=O)[C@H](CCC(=O)O)NC(=O)[C@@H](NC(=O)[C@H](C)NC(=O)[C@@H]1CSSC[C@H](NC(=O)[C@H](CCCNC(=N)N)NC(=O)CC[C@H](NC(=O)CCCCCCCCCCCCCCCCCCC(=O)O)C(=O)O)C(=O)N[C@@H](CCC(N)=O)C(=O)N[C@@H]([C@@H](C)O)C(=O)N[C@@H](C)C(=O)N[C@@H]([C@@H](C)O)C(=O)N1)[C@@H](C)O — EC50 (CALCR; cAMP, agonist): 0.0001 µM
O=S(=O)(c1ccc(-c2ccc3ncnc(Nc4ccc(OCc5ccc(F)cc5)c(Cl)c4)c3c2)cc1)N1CCOCC1 — EC50 (Leishmania major; intracellular amastigote growth, luciferase; RAW264.7 macrophages): > 15 µM
CC(=O)NCC1CCCCN1c1nc(NCC2Cc3ccccc3O2)nc(N2CC3C(CCOc4cc(-c5scnc5C)ccc4CNC(=O)C4CC(O)CN4C(=O)C(NC(=O)C4(F)CC4)C(C)(C)C)C3C2)n1 (centres unmarked) — EC50 (VHL/BRD9 (Homo sapiens, UniProt P40337+Q9H8M2); ternary complex formation, NanoBiT; HEK293T; 2 h, added: MLN4924 2 µM): 0.054 µM
CC[C@H](C)[C@@H](C(=O)N[C@@H](CC(C)C)C(=O)N[C@@H](CO)C(=O)N[C@@H](CO)C(=O)N[C@H](C(=O)N[C@@H](CC(N)=O)C(=O)N[C@H](C(=O)NCC(=O)N[C@@H](CO)C(=O)N[C@@H](CC(N)=O)C(=O)N[C@H](C(=O)N1C[C@H](N)C[C@H]1C(N)=O)[C@@H](C)O)C(C)C)[C@@H](C)O)N(C)C(=O)[C@H](C)NC(=O)CN(C)C(=O)[C@H](Cc1ccccc1)NC(=O)[C@H](CC(N)=O)NC(=O)[C@H](CC(N)=O)NC(=O)[C@H](CO)NC(=O)[C@H](CO)NC(=O)[C@H](CCCNC(=N)N)NC(=O)[C@H](Cc1c[nH]cn1)NC(=O)[C@H](CC(C)C)NC(=O)[C@H](Cc1ccccc1)NC(=O)[C@H](CCC(=O)O)NC(=O)[C@H](C)NC(=O)[C@H](CC(C)C)NC(=O)[C@H](CCCNC(=N)N)NC(=O)[C@H](CCC(N)=O)NC(=O)[C@@H](NC(=O)[C@H](C)NC(=O)[C@@H]1CSSC[C@H](NC(=O)[C@H](CCCNC(=N)N)NC(=O)CC[C@H](NC(=O)CCCCCCCCCCCCCCCCCCC(=O)O)C(=O)O)C(=O)N[C@@H](CC(N)=O)C(=O)N[C@@H]([C@@H](C)O)C(=O)N[C@@H](C)C(=O)N[C@@H]([C@@H](C)O)C(=O)N1)[C@@H](C)O — EC50 (CALCR; cAMP, agonist): 0.000151 µM
CC(=O)NCC1CCCCN1c1nc(NCCn2nnc(C)n2)nc(N2CC3C(CCOc4cc(-c5scnc5C)ccc4CNC(=O)[C@@H]4C[C@@H](O)CN4C(=O)[C@@H](NC(=O)C4(F)CC4)C(C)(C)C)C3C2)n1 (some centres unmarked) — EC50 (VHL/BRD9, with Elongin B/C (Homo sapiens, UniProt P40337+Q9H8M2); ternary complex formation, AlphaScreen; added: 50 nM His-BRD9 and 20 nM biotin-VCB): 0.08 µM
CC[C@H](C)[C@@H](C(=O)N[C@@H](CC(C)C)C(=O)N[C@@H](CO)C(=O)N[C@@H](CO)C(=O)N[C@H](C(=O)N[C@@H](CCC(=O)O)C(=O)N[C@H](C(=O)NCC(=O)N[C@@H](CO)C(=O)N[C@@H](CC(N)=O)C(=O)N[C@H](C(=O)N1C[C@H](O)C[C@H]1C(N)=O)[C@@H](C)O)C(C)C)[C@@H](C)O)N(C)C(=O)[C@H](C)NC(=O)CN(C)C(=O)[C@H](Cc1ccccc1)NC(=O)[C@H](CO)NC(=O)[C@H](CO)NC(=O)[C@H](CCCNC(=N)N)NC(=O)[C@H](CCC(N)=O)NC(=O)[C@H](CC(C)C)NC(=O)[C@H](Cc1ccccc1)NC(=O)[C@H](Cc1c[nH]cn1)NC(=O)[C@H](C)NC(=O)[C@H](CC(C)C)NC(=O)[C@H](CCCNC(=N)N)NC(=O)[C@H](CCC(=O)O)NC(=O)[C@@H](NC(=O)[C@H](C)NC(=O)[C@@H]1CCCC(=O)NC[C@H](NC(=O)[C@H](CCCNC(=N)N)NC(=O)CC[C@H](NC(=O)CCCCCCCCCCCCCCCCCCC(=O)O)C(=O)O)C(=O)NCC(=O)N[C@@H]([C@@H](C)O)C(=O)N[C@@H](C)C(=O)N[C@@H]([C@@H](C)O)C(=O)N1)[C@@H](C)O — EC50 (CALCR; cAMP, agonist): 0.000562 µM
Fc1cccc(COc2ccc(Nc3ncnc4ccc(-c5ccc(N6CCOCC6)cc5)cc34)cc2Cl)c1 — EC50 (Leishmania major; intracellular amastigote growth, luciferase; RAW264.7 macrophages): > 15 µM
O=C1C[C@H](c2nc(-c3ccc(F)c4cn[nH]c34)no2)CCCN1c1ccc(F)cc1 (racemic) — EC50 (CNR2 (Homo sapiens, UniProt P34972, H95A); cAMP, agonist, luciferase): 0.851 µM
